Experimental data gathered from unrelated publications.
Each numbered part is a random draw from the data of one study; scales do not carry over between parts.

Block 1
Target: Histone acetyltransferase KAT6A, both winged helices, GST fusion (KAT6A, Homo sapiens, UniProt Q92794, residues 1-181)
Method: protein binding microarray
Molecule type: double-stranded DNA, one strand shown
Sample: in vitro
Tested at: not given
Notes: 8-mer, flanks averaged, mean of 2 arrays, mostly near background
Baseline: not given
Direction: higher = stronger binding
Residues (chain): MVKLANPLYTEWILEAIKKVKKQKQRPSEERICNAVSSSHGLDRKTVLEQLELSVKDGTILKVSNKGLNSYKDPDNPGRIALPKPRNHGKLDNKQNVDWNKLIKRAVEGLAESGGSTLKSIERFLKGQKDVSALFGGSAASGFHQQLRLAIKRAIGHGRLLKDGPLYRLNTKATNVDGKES
Strand	E-score
AAAGAGAA	-0.0216
AAACATTC	-0.175
ATACGGCA	0.245
AAGACGGG	0.168

Block 2
Target: Centromere-binding protein 1, full length, N-terminal tag (CBF1, Saccharomyces cerevisiae, UniProt P17106, residues 1-351)
Chain of UniProt P17106 (whole entry, looked up): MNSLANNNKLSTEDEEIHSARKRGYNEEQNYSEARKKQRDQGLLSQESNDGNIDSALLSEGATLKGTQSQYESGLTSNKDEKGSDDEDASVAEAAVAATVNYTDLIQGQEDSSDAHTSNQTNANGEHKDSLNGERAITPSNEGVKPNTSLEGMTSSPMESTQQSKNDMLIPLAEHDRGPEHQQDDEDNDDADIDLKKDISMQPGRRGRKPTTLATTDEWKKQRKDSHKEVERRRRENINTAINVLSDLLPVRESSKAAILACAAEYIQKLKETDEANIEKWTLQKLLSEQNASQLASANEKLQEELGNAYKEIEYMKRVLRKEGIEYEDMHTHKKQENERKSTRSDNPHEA
Method: protein-binding microarray
Molecule type: double-stranded DNA, one strand shown
Sample: in vitro
Tested at: 0.8 µM
Notes: whole 60-bp probe, no competitor
Direction: higher = stronger binding
All sequences stand within: … GTCTTGATTCGCTTGACGCTGCTG
Strand	fluorescence intensity [a.u.]
GAAGTGGAAGCCTGACGCGTGCGCCCTTCTCCTTAG	523
GAATTACCAATCACGCACGCACGCAGTCGGTGCTAG	1880
CTAACGCTTTTTCGTGAGGTGTACTACCATTCATTC	539
CTACATAGAACATATCTGGTGAATGTATATGAGTTC	512
GAAGTTTGCAATCATCACCATCTGCACGTTGTTTAG	640
CCTAACTACTATACACGTGCCATATAGCTTCGTACA	9010

Block 3
Target: Sal-like protein 4, full length isoform B (SALL4, Homo sapiens, UniProt Q9UJQ4-2, residues 1-616)
Method: universal PBM
Molecule type: double-stranded DNA, one strand shown
Sample: in vitro
Tested at: not given
Notes: 8-mer, flanks averaged, mean of replicates
Direction: higher = stronger binding
Target sequence (chain): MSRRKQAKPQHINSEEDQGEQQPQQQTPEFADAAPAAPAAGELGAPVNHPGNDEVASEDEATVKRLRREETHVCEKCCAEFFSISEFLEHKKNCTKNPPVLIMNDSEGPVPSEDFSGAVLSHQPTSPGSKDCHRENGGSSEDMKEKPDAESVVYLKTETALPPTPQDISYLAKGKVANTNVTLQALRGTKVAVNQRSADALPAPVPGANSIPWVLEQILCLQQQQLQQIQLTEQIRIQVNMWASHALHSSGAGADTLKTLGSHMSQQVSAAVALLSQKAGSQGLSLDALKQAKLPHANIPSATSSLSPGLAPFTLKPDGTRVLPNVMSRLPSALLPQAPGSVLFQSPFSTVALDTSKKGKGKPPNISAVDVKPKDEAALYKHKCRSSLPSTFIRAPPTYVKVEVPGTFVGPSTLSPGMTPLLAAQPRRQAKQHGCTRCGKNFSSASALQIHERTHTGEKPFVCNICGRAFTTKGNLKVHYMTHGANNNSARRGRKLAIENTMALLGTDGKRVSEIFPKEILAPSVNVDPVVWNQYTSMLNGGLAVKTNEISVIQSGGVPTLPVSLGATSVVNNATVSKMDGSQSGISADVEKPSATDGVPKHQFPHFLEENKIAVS
Strand	E-score
CAGGACGC	-0.175
AATTTCCC	0.088
CGTCGGTC	-0.212
AAGGCGTC	-0.134
CGTGACTA	0.155
GCGATACA	0.0801

Other studies, line by line
Molecule	target	assay	test system	setting	scale	endpoint	result
PhoQ, residues 284 288 289 292 302 303 AQGLTV	PhoP, residues 12 14 15 18 19 NQGLL (Escherichia coli, UniProt P23836)	Sort-seq, refers to: YFP reporter	E. coli	PhoQ-PhoP variant library, added: 10 µM Mg2+	baseline: high Mg2+ state, higher = stronger signaling	fold induction	7.12

Some of these lines once more (block 3):
Strand	E-score
AAGGCGTC	-0.134
AATTTCCC	0.088
